Measured values from different studies.
Each line is one published result; not all experiments were run side by side. Values joined by “and” are separate records of one study, mostly repeats; a detail may differ. ± gives the spread as reported.

[Cl-].[Cl-].[Pt+2].[Ru+2].c1ccc(-c2nc3ccccc3nc2-c2ccccn2)nc1.c1cnc2c(c1)ccc1cccnc12.c1cnc2c(c1)ccc1cccnc12  negative activation entropy (chloride substitution, UV-vis kinetics; aqueous buffer; concentration not given, pH 7.2, second substitution step, together with: guanosine 5'-monophosphate): 108 ± 7 J/(mol·K)
N#Cc1ccc2c(c1)[C@H]1CCCN(C(=O)c3ccc4[nH]cnc4c3)[C@H]1C2  body weight change from baseline (human, Phase II trial; oral, 20 mg once daily, day 28, adjusted mean, SE): 0.6 kg
CC(C)[C@H](C(=O)Nc1ccc(C(=O)NO)cc1)c1ccccc1  tumour volume (volumetric MRI; human, right anterior meningioma; dose not given, day 373): 0.4 cm3
CC(C)C[C@@H](NC(=O)[C@H](C)NC(=O)CNC(=O)[C@@H](NC=O)C(C)C)C(=O)N[C@@H](C)C(=O)N[C@@H](C(=O)N[C@H](C(=O)N[C@@H](C(=O)N[C@@H](Cc1c[nH]c2ccccc12)C(=O)N[C@H](CC(C)C)C(=O)N[C@@H](Cc1c[nH]c2ccccc12)C(=O)N[C@H](CC(C)C)C(=O)N[C@@H](Cc1c[nH]c2ccccc12)C(=O)N[C@@H](C(=O)N[C@@H](Cc1c[nH]c2ccccc12)C(=O)NCCO)C(C)C)[C@H](C)O)C(C)C)C(C)C  EC50 (H+/Na+ transport, pyranine pH-gradient; EYPC/cholesterol LUVs 2:1): 202 ± 46.6 nM
FC(F)(F)Oc1cccc(-c2cnc3ccc(-c4ccncc4)nn23)c1  tumour size (MDA-MB-231 xenograft, NSG mouse; oral, 10 mg/kg daily, day 20; higher = larger tumour): 0.256 a.u. and 0.196 a.u. and 0.211 a.u. and 0.225 a.u. and 0.184 a.u. and 0.325 a.u.
COc1ccc(-c2cncc(N[C@@H](C)c3cccc(NC(=O)c4cncc(C)c4)c3)n2)cc1OC  delta delta Ct (item: rno-miR-410-3p; rat SU5416/hypoxia model, lung; dose not given, unit not given; baseline: SU5416/hypoxia vehicle): -1.81
CC(C)C[C@@H](NC(=O)[C@H](C)NC(=O)CNC(=O)[C@@H](NC=O)C(C)C)C(=O)N[C@@H](C)C(=O)N[C@@H](C(=O)N[C@H](C(=O)N[C@@H](C(=O)N[C@@H](Cc1c[nH]c2ccccc12)C(=O)N[C@H](CC(C)C)C(=O)N[C@@H](Cc1c[nH]c2ccccc12)C(=O)N[C@H](CC(C)C)C(=O)N[C@@H](Cc1c[nH]c2ccccc12)C(=O)N[C@H](CC(C)C)C(=O)N[C@@H](Cc1c[nH]c2ccccc12)C(=O)NCCO)C(C)C)C(C)C)C(C)C  EC50 (H+/Na+ transport, pyranine pH-gradient; EYPC/cholesterol LUVs 2:1): 45.6 ± 10.4 nM
c1ccc(-c2n[nH]cc2-c2ccnc3ccccc23)nc1  log2 fold change (kinase binding, competitor, MIB/MS competition, item: IKS1; Candida albicans cell lysate; 100 nM; baseline: DMSO): 1.27
COc1ccc2c(c1)CC[C@@H]1[C@@H]2CC[C@]2(C)[C@@H](NCCCCCCN3C(=O)C=CC3=O)CC[C@@H]12  p-PKA level (immunostaining; humanized mouse, SAH model, meninges; dose not given): 38.9 MFI and 46.5 MFI and 42.6 MFI
Cc1c(C)n(Cc2cccc(OC(C)(C)C(=O)O)c2)c2ccc(C(=O)N[C@@H](C)c3ccc(C(C)(C)C)cc3)cc12  marrow fat volume/total volume (C57BL/6 mice, diet-induced obese, proximal tibia; dose not given): 0.1 ± 0.06%
NC(=O)c1cnc2[nH]ccc2c1N[C@@H]1[C@@H]2CC3C[C@H]1C[C@@](O)(C3)C2  CD4+ effector memory change (flow cytometry; Japanese healthy men, blood; oral, 30 mg twice daily, 72 h after day 7 dose; baseline: baseline): 0.03%
O=C(O)c1ccc(-n2cc(CNc3cc(Br)cc(C(F)(F)F)c3)c(-c3ccc(F)c(F)c3)n2)cc1  survival (Caenorhabditis elegans, S. aureus infected; 2 µg/mL, 5 days): ~80%
C[C@]12CC[C@@H]3c4ccc(O)cc4C[C@@H](CCCCCCCCC[S+]([O-])CCCC(F)(F)C(F)(F)F)[C@H]3[C@@H]1CC[C@@H]2O (stereo partly shown)  ER protein reduction (degrader; in vivo preclinical models; dose not given, monotherapy average): 60%
COc1nc(-c2cc(C)c(N[C@@H](C)c3cc(F)cc(F)c3)nn2)ccc1-n1cnc(C)c1  change in level (item: Aβ38; rat Sprague-Dawley male, CSF; oral, 5 mg/kg daily for 9 days, 4 h after dose; baseline: vehicle): 26%
N#Cc1ccc2c(-c3ccncc3)c(-c3ccc(F)cc3)nn2c1  log2 fold change (kinase binding, competitor, MIB/MS competition, item: ENV7; Candida albicans cell lysate; 1 µM; baseline: DMSO): 0.225
CO[C@H]1CC[C@H](N2C(=O)CNc3ncc(-c4ccc(C(C)(C)O)nc4)nc32)CC1  pS6RP change from baseline (flow cytometry; stimulated B cells, human, blood; 60 mg single dose, 5 h, mean; baseline: baseline): -71.9%
N#Cc1ccn2c(-c3ccncc3)c(-c3ccc(F)cc3)nc2c1  log2 fold change (kinase binding, competitor, MIB/MS competition, item: RIM8; Candida albicans cell lysate; 10 µM; baseline: DMSO): -0.107
O=C(O)CNC(=O)Cc1ccccc1  sarcomere length (ventricular cardiomyocytes, C57BL/6 mouse; dose not given, 0.108 s): 1.72 µm
CCO  time to maximum SBP change (supine; median): 1.97 h
CC#Cc1cncc(-c2ccc3c(c2)[C@@]2(N=C(C)C(N)=N2)[C@]2(CC[C@H](OC)CC2)C3)c1  IC50 (plasma Aβ40 reduction, PK/PD model; beagle dog; oral, free plasma concentration basis): ~0.1 nM
CC(C)NCC(O)c1ccc(O)c(O)c1 (stereo not shown)  sarcomere length (ventricular cardiomyocytes, C57BL/6 mouse; dose not given, 0.264 s): 1.66 µm
CC1(C)CCC(c2ccc(Cl)cc2)=C(CN2CCN(c3ccc(C(=O)NS(=O)(=O)c4ccc(N[C@H](CCN5CCOCC5)CSc5ccccc5)c(S(=O)(=O)C(F)(F)F)c4)cc3)CC2)C1  EC50 (cell kill; primary neoplastic B cells, dog 37; 24 h, multicentric marginal zone lymphoma): > 50000 nM
CN(C)C(=O)Oc1cccc([N+](C)(C)C)c1  train-of-four ratio (neuromuscular block reversal; rat; dose not given, 14 (unit not given), together with: cisatracurium; baseline: T1 twitch): 95.9
C[C@H](CS)C(=O)N1CCC[C@H]1C(=O)O  fibrosis area (mouse, unilateral ureteral obstruction, left kidney (obstructed); dose not given): 7.41% and 13.3% and 5.88% and 7.02% and 5.97% and 6.14%
OC(CCN1CCCCC1)(c1ccccc1)C1CC2C=CC1C2 (stereo not shown)  change, Alpha EEG power, in O2-Pz (resting-state EEG; healthy elderly humans; oral, 4 mg, eyes closed, LS mean; baseline: baseline): -23.1%
CS(=O)(=O)CCNCc1ccc(-c2ccc3ncnc(Nc4ccc(OCc5cccc(F)c5)c(Cl)c4)c3c2)o1  ED50 (tumour growth; MDA-MB-361 orthotopic xenograft, mouse; oral, daily for 28 days): 109 mg/kg
C[C@@H](O)CCOC(=O)C[C@@H](C)O  plasma glucagon (human; oral drink, dose not given, 60 min post dose, median, all participants): 19 pM
Cc1ccc(C(=O)Nc2ccnc(S(N)(=O)=O)c2)c(N2CCCC(F)(F)CC2)n1  conduction velocity (Macaca mulatta, C-nociceptors; intravenous, 0.6 mg/kg bolus then 0.8 mg/kg/h, 30 min): 100.3 ± 0.89 % baseline
O[C@H]1CCCN[C@@H]1CCCn1cnc2c(Cl)c(Cl)ccc21  maximum reduction (ELISA, item: Pro-C6; healthy human volunteers, serum; intraduodenal, 25 mg twice daily, day 14, multiple ascending dose): 6.45%
C[C@@H](NC(=O)N1C(=O)[C@H](Cc2ccnc(N)c2)[C@H]1C(=O)O)C1CCCCC1  aPTT AUEC (human; iv infusion, 2.25 mg/kg/h, 24 h, unit not given; baseline: baseline): 220
COC(=O)CCc1ccc(OCC(O)CNC(C)C)cc1 (stereo not shown)  systolic blood pressure (healthy male humans; concentration not given, 15 min, baseline before dosing, together with: saline): 109 mm Hg
Cn1cc(Nc2nccc(-c3ccc4c(c3)CN(C3COC3)CC[C@H]4NC(=O)c3cn(C(C)(C)C)nn3)n2)cn1  pathway activation z-score (item: pyrimidine ribonucleotides interconversion; splenic B cells, mice; 30 mg/kg, IgD-activated in vivo; baseline: vehicle, direction not given): 0
Cc1cn(-c2ccc3n(c2=O)CCN([C@@H](C)[C@@H]2CC[C@H](c4cc(F)c(Cl)cc4C(F)(F)F)O2)C3=O)cn1  change in CSF level (item: Aβ38; human, cerebrospinal fluid; 150 mg single dose, Tmax; baseline: placebo-adjusted baseline): 29.9%
CSCCNc1nc(SCCC(F)(F)F)nc2c1ncn2[C@@H]1O[C@H](COP(=O)(O)OP(=O)(O)C(Cl)(Cl)P(=O)(O)O)[C@@H](O)[C@H]1O  platelet aggregation AUC (ADP-induced platelet aggregation, Multiplate aggregometry; human patients, whole blood; dose not given, 3 h): 52.7 ± 35.8 U
O=C1CCc2ccc(OCCCCN3CCN(c4cccc(Cl)c4Cl)CC3)cc2N1  stopping or switching (patients CYP2D6 NM; 12 months): 51%
C=C1CC[C@H](OCCCNC(=O)CCOCCOCCOCCOCCOCCOCCOCCOCCOCCOCCOCCOCCOCCOCCOCCOCCOCCOCCOCCOCCOCCOCCOCCOCCOCCOCCOCCOCCOCCOCCOCCOCCOCCOCCOCCOCCNC(=O)CCN2C(=O)CC(SC[C@H](NC(=O)[C@H](CCCNC(=N)N)NC(=O)[C@@H]3CCCN3C(=O)[C@H](CCC(N)=O)NC(=O)[C@H](CC(C)C)NC(=O)[C@H](CCCCN)NC(=O)[C@H](C)NC(=O)[C@@H]3CCCN3C(=O)[C@@H]3CCCN3C(=O)[C@H](CCCCN)NC(=O)[C@H](CCCCN)NC(=O)[C@H](CO)NC(=O)[C@H](CCC(=O)O)NC(=O)[C@H](CCCCN)NC(=O)[C@H](CCCNC(=N)N)NC(=O)[C@H](CCC(N)=O)NC(=O)[C@H](CCC(N)=O)NC(=O)[C@@H](NC(=O)[C@H](CCCNC(=N)N)NC(=O)[C@H](CCC(N)=O)NC(=O)[C@H](Cc3c[nH]cn3)NC(=O)[C@H](CCC(=O)O)NC(=O)[C@@H]3CCCN3C(=O)[C@H](CO)NC(=O)[C@H](CC(C)C)NC(=O)[C@H](Cc3ccccc3)NC(=O)[C@H](CNC(=O)CCCCCCC)NC(=O)[C@H](CO)NC(=O)CN)C(C)C)C(=O)O)C2=O)C/C1=C/C=C1\CCC[C@]2(C)[C@@H]([C@H](C)CCCC(C)(C)O)CC[C@@H]12 (stereo partly shown)  food intake decrease (C57BL/6J mice, LLC tumour-induced cachexia; subcutaneous, 0.5 mg/kg every other day, 2 weeks; baseline: tumour-bearing vehicle): 6%
O=C1N(Cc2ccccc2Cl)c2ccccc2C12NN=C(c1ccccc1)S2 (stereo not shown)  T/C (HL-60 xenograft, mouse; intravenous, 776 mg/kg total, xenograft; baseline: vehicle): > 100%
C[C@H]1C[C@H]2CSC(N)=N[C@@]2(c2nc(NC(=O)c3ccc(OC(F)F)cn3)cs2)CO1  percent change from baseline (item: total Aβ; healthy adults, plasma; 3 mg single dose, 48 h post-dose; baseline: placebo): -19%
COc1ccc(C2=N[C@@H](c3ccc(Cl)cc3)[C@@H](c3ccc(Cl)cc3)N2C(=O)N2CCNC(=O)C2)c(OC(C)C)c1  ejection fraction (echocardiography; Dmd C3333Y mouse; dose not given): 46.2% and 51.5% and 50.2% and 53.3% and 49.2%
CN[C@@H]1COc2c(S(=O)(=O)NC(=O)Nc3c4c(cc5c3CCC5)CCC4)cnn2C1  inhibition (item: IL-1β; human participants, whole blood ex vivo; 300 mg twice daily, multiple doses, 156 h, together with: LPS/ATP; baseline: baseline): 95.7%
[Cl-].[Cl-].[Pt+2].[Ru+2].c1ccc(-c2nccnc2-c2ccccn2)nc1.c1cnc2c(c1)ccc1cccnc12.c1cnc2c(c1)ccc1cccnc12  negative activation entropy (chloride substitution, UV-vis kinetics; aqueous buffer; concentration not given, pH 7.2, second substitution step, together with: thiourea): 147 ± 8 J/(mol·K)
COc1ccc(F)cc1C(=O)NCc1ccc(-c2nn([C@@H](C)C(F)(F)F)c(N)c2C(N)=O)cc1  overall response rate (CLL/SLL patients; dose not given, prior BTK and BCL2 inhibitors): 64%
CN(C(=O)n1cnc(-c2ccc[n+]([O-])c2)c1)C1CCCCC1  AUC(0-tau) (item: PEA; human, plasma; 10 mg once daily, day 10): 129 ng·h/mL
CC(c1cc2ccccc2s1)N(O)C(N)=O (stereo not shown)  LTB4 isomers level (human blood; 3 µM, together with: A23187): 115 ± 41 pg/mL
N#Cc1ccc2c(c1)[C@H]1CCCN(C(=O)c3ccc4[nH]cnc4c3)[C@H]1C2  change in fasting insulin (human, plasma; 40 mg, day 15, 360 h; baseline: placebo and baseline): -27.6%
C[C@H](Oc1ccc(Br)cc1-c1ccon1)C(=O)O  difference from placebo (last response peak; human, tibialis anterior muscle; 200 mg, 15 Hz, single ascending dose): -5.93%
Cc1n[nH]c2ccc(-c3cc(OC[C@@H](N)Cc4ccccc4)cnc3-c3ccoc3)cc12  log2 fold change (kinase binding, competitor, MIB/MS competition, item: KIN3; Candida albicans cell lysate; 100 nM; baseline: DMSO): 0.0483
CCN(Cc1nc2c(N)nc3cc(-c4cc[nH]n4)ccc3c2[nH]1)C(C)=O  fold change (Luminex, item: IL-1β; cancer patients, serum; 4000 µg monotherapy, first 24 h; baseline: baseline): 2.6
Cc1ccc([C@@H]2O[C@H](CO)[C@@H](O)[C@H](O)[C@H]2O)cc1Cc1ccc(-c2ccc(F)cc2)s1  change in 24-h mean serum insulin (Japanese type 2 diabetes patients; 200 mg, day 1; baseline: day 0): -1.5 µU/mL

For quick reference, copied from above:
CC#Cc1cncc(-c2ccc3c(c2)[C@@]2(N=C(C)C(N)=N2)[C@]2(CC[C@H](OC)CC2)C3)c1  IC50 (plasma Aβ40 reduction, PK/PD model; beagle dog; oral, free plasma concentration basis): ~0.1 nM
CC(C)NCC(O)c1ccc(O)c(O)c1 (stereo not shown)  sarcomere length (ventricular cardiomyocytes, C57BL/6 mouse; dose not given, 0.264 s): 1.66 µm
CC1(C)CCC(c2ccc(Cl)cc2)=C(CN2CCN(c3ccc(C(=O)NS(=O)(=O)c4ccc(N[C@H](CCN5CCOCC5)CSc5ccccc5)c(S(=O)(=O)C(F)(F)F)c4)cc3)CC2)C1  EC50 (cell kill; primary neoplastic B cells, dog 37; 24 h, multicentric marginal zone lymphoma): > 50000 nM
CN(C)C(=O)Oc1cccc([N+](C)(C)C)c1  train-of-four ratio (neuromuscular block reversal; rat; dose not given, 14 (unit not given), together with: cisatracurium; baseline: T1 twitch): 95.9
